Assay results gathered from unrelated publications.
Numbered parts are unrelated; each lists some results of a single study.

Sample 1 — technique: protein binding microarray; molecule type: double-stranded DNA, one strand shown; matrix: in vitro; tested at: not given; relative to: not given; reading: higher = stronger binding
Target: Histone acetyltransferase KAT6A, winged helix 2, GST fusion (KAT6A, Homo sapiens, UniProt Q92794, residues 85-181)
Notes: 8-mer, flanks averaged, mean of 2 arrays, mostly near background
Construct (chain): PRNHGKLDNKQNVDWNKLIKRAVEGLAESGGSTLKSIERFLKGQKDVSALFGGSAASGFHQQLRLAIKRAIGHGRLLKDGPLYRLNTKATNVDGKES
With `ATATGCGC` the E-score was -0.0581.
With `AGATATTG` the E-score was -0.0325.
`AGTACGAA` gave an E-score of 0.0485.
`GTGGTTAA` has an E-score of -0.0352.
The E-score of `CTTTGGAC` is reported as 0.0972.
`GCGTCGCA` gave an E-score of 0.216.
The E-score of `AGCACGCG` is reported as 0.0865.
For `CGGCGAAA`, the E-score was 0.196.
The E-score of `CAACGGGC` is reported as 0.0796.
`CCAAGGCC` gave an E-score of -0.0387.
`CTCATTTC` gave an E-score of 0.0355.
`AGGAGCAT` gave an E-score of 0.0117.
`ACTCATCA` gave an E-score of -0.101.
`AGACTTCG` gave an E-score of -0.159.
With `CGAGGCTC` the E-score was 0.0629.
For `AGTGGGAT`, the E-score was 0.00611.
With `TATCTTAA` the E-score was 0.11.
`AAACCCCC` has an E-score of -0.194.

Sample 2 — technique: RNA Bind-n-Seq; molecule type: RNA; matrix: in vitro; tested at: 1 µM; notes: whole 134-nt RNA, ends assumed; with: 150 mM KCl; relative to: input library; reading: higher = stronger binding
Target: Ras GTPase-activating protein-binding protein 1, C-terminal RGG region (G3BP1, Homo sapiens, UniProt Q13283)
Chain of UniProt Q13283 (whole entry, looked up): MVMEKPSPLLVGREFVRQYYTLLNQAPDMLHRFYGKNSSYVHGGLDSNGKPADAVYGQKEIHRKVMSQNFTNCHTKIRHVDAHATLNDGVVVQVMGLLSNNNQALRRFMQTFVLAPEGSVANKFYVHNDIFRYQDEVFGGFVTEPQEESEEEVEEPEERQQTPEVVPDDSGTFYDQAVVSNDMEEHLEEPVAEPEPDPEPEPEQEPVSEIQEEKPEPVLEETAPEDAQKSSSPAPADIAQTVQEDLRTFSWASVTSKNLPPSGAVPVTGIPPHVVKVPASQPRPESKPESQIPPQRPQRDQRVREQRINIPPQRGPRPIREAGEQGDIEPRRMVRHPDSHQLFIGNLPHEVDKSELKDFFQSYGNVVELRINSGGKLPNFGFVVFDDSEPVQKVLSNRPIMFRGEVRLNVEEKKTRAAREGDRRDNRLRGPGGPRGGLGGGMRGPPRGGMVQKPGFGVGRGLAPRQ
For `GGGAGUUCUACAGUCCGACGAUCUAACUUUAGAGGAGGAUCUGAUGGAUAUGGCAGUGGACGUGGAUUUGGGGAUUGCUAUAAUGGGUAUGGAGGAGGACCUGGAGGUGGCAAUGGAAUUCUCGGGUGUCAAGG`, the log2 enrichment was -0.691.
With `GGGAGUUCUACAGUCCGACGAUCCAAGUCCUGUGCUACACAUCGUAUGUACCGAAUCGGUUUGGGGUUUGGUUUGGGGAAAGUAUUAUGUUACGCCGUUCGGAUCUGCACUUCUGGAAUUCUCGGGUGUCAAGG` the log2 enrichment was -0.862.
`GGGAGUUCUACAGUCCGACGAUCUCCUGUGCUACACAUCGUAUGUACCGAAUCGGAAAAAAGGGGAAAAAAGGAAAAAAGGGAAAGUAUUAUGUUACGCCGUUCGGAUCUGCAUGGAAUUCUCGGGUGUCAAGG` gave a log2 enrichment of -1.31.
`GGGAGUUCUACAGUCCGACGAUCUAACUUUAGAGGAGGAACUGAUGGAUAUGGCAGUGGACGUGGAUUUGGGGAUGGCUAUAAUGGGUAUGGAGGAGGACCUGGAGGUGGCAAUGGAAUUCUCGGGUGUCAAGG` has a log2 enrichment of -0.929.
`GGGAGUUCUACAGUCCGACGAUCAUUCUUCAUUGAGGGUGAGGAUCUCCCAAUGGGAGACUGCUCUGAAAAGAGCAUGUGCUUUUUGAAUUAGAUAACCUACUAUAAUCAUGGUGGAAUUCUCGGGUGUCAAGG` gave a log2 enrichment of -1.2.
For `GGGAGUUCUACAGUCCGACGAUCAAGUCCUGUGCUACACAUCGUAUGUACCGAAUCGGGGUUUUUGGGGUGGGGUGGGGAAAGUAUUAUGUUACGCCGUUCGGAUCUGCACUUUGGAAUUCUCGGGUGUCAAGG`, the log2 enrichment was 1.76.
The log2 enrichment of `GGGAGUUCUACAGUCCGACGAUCCACAGACAACACGCACCCACACAGACACAGAGGGAAGGGGUUGGGAUGGGGACAUGGUGCACAGCAGGGCGGGGUAGGACCCCAGCCCCUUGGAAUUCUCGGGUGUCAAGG` is reported as 0.0889.
With `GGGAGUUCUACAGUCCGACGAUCUGACUUUAGGAGAUACCUUAACUCGACGUUCCAUUAGCCAGCAGAAGUCCGGAGUUUCCAUUACCAUUGAUGACCCAGUCCGAACUGCCCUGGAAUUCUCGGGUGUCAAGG` the log2 enrichment was -0.615.
`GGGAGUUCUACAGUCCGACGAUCAAGUCCUGUGCUACACAUCGUAUGUACCGAAUCGGGGUGGGGUGGGGAAAAAGGGGAAAGUAUUAUGUUACGCCGUUCGGAUCUGCACUUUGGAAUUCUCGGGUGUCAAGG` has a log2 enrichment of 1.29.

Sample 3 — technique: RNA Bind-n-Seq; molecule type: RNA; matrix: in vitro; tested at: not given; relative to: input RNA pool; reading: higher = stronger binding
Target: RING finger protein unkempt homolog, zinc fingers 1-6, GST-SBP tag (UNK, Homo sapiens, UniProt Q9C0B0, residues 30-357)
Chain of UniProt Q9C0B0 (30-357, looked up): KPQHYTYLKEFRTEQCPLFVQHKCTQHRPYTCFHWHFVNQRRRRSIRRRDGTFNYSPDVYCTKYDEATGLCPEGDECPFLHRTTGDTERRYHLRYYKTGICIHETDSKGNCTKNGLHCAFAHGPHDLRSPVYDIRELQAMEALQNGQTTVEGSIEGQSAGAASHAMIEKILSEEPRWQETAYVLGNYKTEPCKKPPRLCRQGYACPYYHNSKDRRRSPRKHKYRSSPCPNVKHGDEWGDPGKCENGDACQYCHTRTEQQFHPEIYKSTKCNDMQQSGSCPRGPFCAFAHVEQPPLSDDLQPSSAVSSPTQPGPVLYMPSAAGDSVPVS
Notes: RNA with constant flanks, human-mouse chimeric sites, ends assumed
`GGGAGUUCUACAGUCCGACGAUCGGCUGCUGGUGACUGUCCUGGAGUGGCUGGAGUUCCCCCGGAACCUGGGCCAGACUAAUUUUAGAAAAUGCCAAGUAGGAAAUUUGCUGAGGGUGAAGUGGUCAGAGGCCGAUGGCCUGGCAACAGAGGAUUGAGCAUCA` has a bound/input enrichment of 3.62 ratio.
For `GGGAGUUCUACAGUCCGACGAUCUCUGGUCACACUCGUGUGUAUGGUGUUUGCUUUGUGGACACUUCACUGGGCAAGUUUUUCAUAGGUCAGUUUUCGGAUGAUCGCCAUUGUUCCAGAUUUAGGACGCUAGUGGCUCACUAUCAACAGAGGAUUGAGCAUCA`, the bound/input enrichment was 0.35 ratio.
With `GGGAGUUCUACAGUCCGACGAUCGCAGGAUCUUCUAAGUACCAGUGGGACAUUAUGAAAUCCCUUGGCCUGUCUGAUGAAGACAUAGUGAAGUUUUCUGAAGCAGAGCACUGGCUUGAUUAUUUCCCACCACUGGCCGUUCAGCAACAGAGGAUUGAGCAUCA` the bound/input enrichment was 0.147 ratio.
`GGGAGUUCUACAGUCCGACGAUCUAUUUUUGACAGCCACACAAUCUUGGCAUGUAUUAAGGAAAAAAAAAAUCCCUGUUCAAGUAGUUUUUCCACCUAUCAGCACUGAGUAAAUGCCAUAACUCCGCGGAAAUGGUCUAAAUACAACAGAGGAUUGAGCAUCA` gave a bound/input enrichment of 0.235 ratio.
The bound/input enrichment of `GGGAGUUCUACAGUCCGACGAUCUUAAACACCAAGCUGAUGGACUCUGAUGGCCUCCAUCUCUCAGGCACGUGUGCCUUCUCUUAGUCCCUGUUUUCGGGAUGUUAUGAACAGUAUCAUGGUGGUUUGAAAGCACCAGCUUUGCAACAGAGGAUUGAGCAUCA` is reported as 0.129 ratio.
With `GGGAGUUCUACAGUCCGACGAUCUUACCCGAGAACGAGGAUGAAUUGGAGAGCACCAACAGGCGCUACACCAAGAGGGACUGCAGCACUUUUCUCAGAACUAGUGAGACGGGCAUCGUGGACCAGGUCAUGGUCACUCUCAACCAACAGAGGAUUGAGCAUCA` the bound/input enrichment was 0.164 ratio.
For `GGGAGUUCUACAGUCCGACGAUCGGUGGGGUGGUCAUUGCCGUUUGAGCUCUGCUGAUUCAUGAGUCGCCUUCAAAACUCUCGUGUAGGGUUGACAAUGUGGGGGGGUGGGAAAUCUAGCUUAUUCUUUUAUUUUCAAGUCCACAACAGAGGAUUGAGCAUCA`, the bound/input enrichment was 10.9 ratio.
For `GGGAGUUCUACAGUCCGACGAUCGGUGGGGGGUUGUCAUUCGUUUGAGCUGCUGAUUUUCAUGAGUCGCCCAUUCAGAACUCGUGUAGGGUUGACAAUGUGGGGGGGUGGGGGAUCCAGCUUAUUCUUUUAUUUUCAAGUCCACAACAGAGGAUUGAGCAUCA`, the bound/input enrichment was 0.832 ratio.

Sample 4 — technique: universal PBM; molecule type: double-stranded DNA, one strand shown; matrix: in vitro; tested at: 600 nM; reading: higher = stronger binding
Target: Sal-like protein 4, full length isoform A (SALL4, Homo sapiens, UniProt Q9UJQ4, residues 1-1053)
Chain of UniProt Q9UJQ4 (whole entry, looked up): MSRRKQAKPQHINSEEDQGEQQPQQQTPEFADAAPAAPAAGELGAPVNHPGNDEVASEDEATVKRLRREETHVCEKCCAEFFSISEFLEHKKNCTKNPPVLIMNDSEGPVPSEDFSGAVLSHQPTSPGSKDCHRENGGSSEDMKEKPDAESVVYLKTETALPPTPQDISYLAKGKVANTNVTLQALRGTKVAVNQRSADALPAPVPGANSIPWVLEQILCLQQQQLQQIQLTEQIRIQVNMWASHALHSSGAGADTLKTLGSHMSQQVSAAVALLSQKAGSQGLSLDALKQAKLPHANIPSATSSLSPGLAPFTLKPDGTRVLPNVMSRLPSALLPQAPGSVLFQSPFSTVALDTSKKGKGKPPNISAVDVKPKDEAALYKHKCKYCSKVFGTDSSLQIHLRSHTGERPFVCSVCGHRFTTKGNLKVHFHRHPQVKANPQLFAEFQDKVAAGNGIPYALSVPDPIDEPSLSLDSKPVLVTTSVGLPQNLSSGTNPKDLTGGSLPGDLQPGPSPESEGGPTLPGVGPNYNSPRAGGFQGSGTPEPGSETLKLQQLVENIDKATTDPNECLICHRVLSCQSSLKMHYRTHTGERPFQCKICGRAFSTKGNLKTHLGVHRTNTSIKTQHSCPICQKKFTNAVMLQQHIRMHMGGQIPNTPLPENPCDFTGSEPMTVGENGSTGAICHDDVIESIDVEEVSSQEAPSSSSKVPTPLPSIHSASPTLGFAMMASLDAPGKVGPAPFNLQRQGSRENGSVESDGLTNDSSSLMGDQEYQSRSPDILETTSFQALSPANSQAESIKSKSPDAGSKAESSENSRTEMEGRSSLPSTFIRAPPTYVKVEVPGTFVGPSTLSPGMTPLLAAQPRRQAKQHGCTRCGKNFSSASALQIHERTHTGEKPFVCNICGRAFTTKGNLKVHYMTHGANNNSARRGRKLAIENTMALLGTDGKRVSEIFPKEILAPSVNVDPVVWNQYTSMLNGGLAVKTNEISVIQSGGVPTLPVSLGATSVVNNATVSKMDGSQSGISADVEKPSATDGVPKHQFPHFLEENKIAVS
Notes: 8-mer, flanks averaged, mean of replicates
For `AAGACTAA`, the E-score was 0.102.
`AATCTAGG` gave an E-score of 0.147.
`ATAGTAAC` gave an E-score of 0.237.
With `AAGCGGGG` the E-score was -0.113.
With `CCACTAAG` the E-score was -0.192.
With `GGAGCAGA` the E-score was -0.0539.
For `TACCTCAA`, the E-score was 0.0599.
With `GATATGAC` the E-score was 0.271.
With `CCCGTAGG` the E-score was -0.326.
`CTCCCCAC` has an E-score of -0.186.
For `ACTCCTCG`, the E-score was -0.0497.
`GCTTGGAC` gave an E-score of -0.162.
With `AAATTTAG` the E-score was 0.273.
`CAAACGGA` gave an E-score of -0.141.
`AGGCATAC` gave an E-score of -0.00971.
For `CGCCTCCC`, the E-score was -0.298.
For `AACCAGAA`, the E-score was 0.042.
`AGGTACAG` has an E-score of 0.0462.
`GCCTTGGA` gave an E-score of -0.097.

Sample 5 — technique: protein-binding microarray; molecule type: double-stranded DNA, one strand shown; matrix: in vitro; tested at: 250 nM; notes: 60-bp whole probe; with: salmon DNA 0.4 mg/ml; relative to: random background probes; reading: higher = stronger binding; shared flanks, not repeated: GCCTAGCAC … GTCTTGATTCGCTTGACGCTGCTG
Target: Interferon regulatory factor 7, full length, phosphomimetic (IRF7, Homo sapiens, UniProt Q92985, residues 1-503, S101K/S471D/S472D/S475D/S476D/S477D/S483D/S484D/S487D)
Residues (chain): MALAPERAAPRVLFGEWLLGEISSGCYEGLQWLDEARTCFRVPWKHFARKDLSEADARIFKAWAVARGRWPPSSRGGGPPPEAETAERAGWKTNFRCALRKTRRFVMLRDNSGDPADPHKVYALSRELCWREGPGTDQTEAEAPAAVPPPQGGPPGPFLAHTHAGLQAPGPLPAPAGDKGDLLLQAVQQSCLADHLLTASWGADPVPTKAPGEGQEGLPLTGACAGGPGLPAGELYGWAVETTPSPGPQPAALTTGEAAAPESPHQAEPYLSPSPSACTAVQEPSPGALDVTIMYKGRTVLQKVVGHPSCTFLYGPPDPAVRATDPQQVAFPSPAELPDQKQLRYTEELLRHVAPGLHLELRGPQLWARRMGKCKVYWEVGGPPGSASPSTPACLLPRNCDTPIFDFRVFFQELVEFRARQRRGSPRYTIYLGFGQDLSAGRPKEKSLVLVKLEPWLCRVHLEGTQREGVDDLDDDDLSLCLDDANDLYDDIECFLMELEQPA
`TTAGGACTGGACACTGCGTTAGTGCTA` gave a log fluorescence of -0.532 z-score.
`GACGGACTGCTTCTCCTGACGTGCTAG` has a log fluorescence of -0.14 z-score.
`TCATTTTTAGATATCTTACTGTGCTAG` has a log fluorescence of 0.74 z-score.
`TTAGATATCAGACTGGATTTGTGCTAG` gave a log fluorescence of -0.139 z-score.
For `TTGTGTTTTCATTTTATGACGTGCTAG`, the log fluorescence was 2.14 z-score.
`GACGTTATCGGTCTCGGGACGTGCTAG` has a log fluorescence of 0.423 z-score.
`TTAGGTATCGGTATTGGTTAGTGCTAG` gave a log fluorescence of 1.47 z-score.
The log fluorescence of `GACTATCTCAGTATCGAGACGTGCTAG` is reported as 0.655 z-score.
With `GACGGTCTCCTTCTCGTGACGTGCTAG` the log fluorescence was 0.0535 z-score.
`TTAGAACTGGGTTTCGATTAGTGCTAG` has a log fluorescence of 7.46 z-score.
With `TTAGGTCTCGGCCTGGGTTAGTGCTAG` the log fluorescence was -0.0786 z-score.
For `GACGAACTGAGACTGGTGACGTGCTAG`, the log fluorescence was -0.324 z-score.
The log fluorescence of `GACGGGCTGCTTCTCCTGACGTGCTAG` is reported as -0.96 z-score.
`GACGATTTCAGAGTGGAGACGTGCTAG` has a log fluorescence of -0.225 z-score.
`TCATGTTCCCTCATCAGACTGTGCTAG` gave a log fluorescence of 1.3 z-score.
The log fluorescence of `GGCGGTCTCGGTATCGGGACGTGCTAG` is reported as 1.72 z-score.
`TTAGATATCGGGCTTCGATTAGTGCTA` gave a log fluorescence of 0.0984 z-score.
The log fluorescence of `GACGATATCAGACTAGAGACGTGCTAG` is reported as -0.0183 z-score.
